Published values collected from several papers.
Every numbered part comes from another study and shows a few of its results, in no order.

Set 1 — technique: RNA Bind-n-Seq; molecule type: RNA; matrix: in vitro; tested at: 200 nM; setting: whole 134-nt RNA, ends assumed; with: 150 mM LiCl; baseline: input library; direction: higher = stronger binding; each molecule: 7-deaza-guanosine replaces G
Target: Ras GTPase-activating protein-binding protein 1, full length (G3BP1, Homo sapiens, UniProt Q13283)
Sequence of UniProt Q13283 (whole entry, looked up): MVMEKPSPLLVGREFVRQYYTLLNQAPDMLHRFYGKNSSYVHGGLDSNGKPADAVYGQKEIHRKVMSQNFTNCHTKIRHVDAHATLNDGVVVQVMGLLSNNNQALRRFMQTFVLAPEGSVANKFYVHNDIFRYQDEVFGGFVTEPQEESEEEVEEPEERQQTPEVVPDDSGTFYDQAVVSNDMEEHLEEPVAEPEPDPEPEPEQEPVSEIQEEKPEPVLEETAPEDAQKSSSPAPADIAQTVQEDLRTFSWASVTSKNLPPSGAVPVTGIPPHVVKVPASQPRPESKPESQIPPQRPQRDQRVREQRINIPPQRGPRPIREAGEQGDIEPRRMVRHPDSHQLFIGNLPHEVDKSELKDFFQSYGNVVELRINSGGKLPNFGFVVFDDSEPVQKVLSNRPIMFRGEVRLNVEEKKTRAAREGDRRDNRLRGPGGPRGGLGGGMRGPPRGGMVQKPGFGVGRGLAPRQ
For `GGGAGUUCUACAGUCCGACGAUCACCAUGCAGGUGGGCAUCUUUGGGAAGUGGGGCAAGGGGGGGAUAGGGAGGGGGGUAACACUUUGGGAACAGGUGGUCUCAGGUCGUUUCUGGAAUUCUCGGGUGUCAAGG`, the log2 enrichment was 0.131.
`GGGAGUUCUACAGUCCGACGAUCCACAGACAAGACGCACCCACACAGACACAGAGGGAAGGGGUUGGGAUGGGGACAGGGUGCACAGCAGGGCGGGGUAGGACCCCAGCCCCUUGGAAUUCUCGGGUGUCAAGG` has a log2 enrichment of 0.489.
`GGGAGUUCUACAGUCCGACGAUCGUCCUGUGCUACACAUCGUAUGUACCGAAUCGGCCCCCGGGGCCCCCGGGCCCCCGGGAAAGUAUUAUGUUACGCCGUUCGGAUCUGCACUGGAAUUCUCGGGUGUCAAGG` has a log2 enrichment of -1.45.
For `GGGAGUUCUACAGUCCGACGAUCAUGUUCUUGAAUACUUAGCAAACAUACCAGCAUCCCAAAGUCACCAAGAUAAACCCUCCUACUCCAACAUCACAUGAUCUUCUAAUUCUAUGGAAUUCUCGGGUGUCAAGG`, the log2 enrichment was 1.38.
With `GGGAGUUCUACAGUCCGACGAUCUAACUUUAGAGCAGGAUCUGAUGGAUAUGGCAGUGGACGUGGAUUUGGGGAUGGCUAUAAUGGGUAUGGAGGAGGACCUGGAGGUGGCAAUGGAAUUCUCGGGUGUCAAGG` the log2 enrichment was -0.766.
The log2 enrichment of `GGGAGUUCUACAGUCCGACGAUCCUGUGCUACACAUCGUAUGUACCGAAUCGGGGCCCCCCCGGGCCCCCCCGGGCCCCCCCGGGAAAGUAUUAUGUUACGCCGUUCGGAUCUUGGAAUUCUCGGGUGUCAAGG` is reported as 0.455.
`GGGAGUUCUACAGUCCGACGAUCUAACUUUAGAGGAGGAUCUGAUGGAUAUGGCAGUGGACGUGGAUUUGGGGAUGGCUAUAAUGCGUAUGGAGGAGGACCUGGAGGUGGCAAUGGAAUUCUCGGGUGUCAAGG` has a log2 enrichment of 0.319.
With `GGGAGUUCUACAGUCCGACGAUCCACAGACAACCCGCACCCACACAGACACAGAGGGAAGGGGUUGGGAUGGGGACAGGGUGCACAGCAGGGCGGGGUAGGACCCCAGCCCCUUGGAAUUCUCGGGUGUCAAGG` the log2 enrichment was -1.06.
With `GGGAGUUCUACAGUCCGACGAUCGUCCUGUGCUACACAUCGUAUGUACCGAAUCGGAAAAAGGAAAAAAAGGUUUUUUUGGAAAGUAUUAUGUUACGCCGUUCGGAUCUGCACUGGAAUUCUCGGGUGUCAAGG` the log2 enrichment was -1.99.
For `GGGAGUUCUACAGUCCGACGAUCUACCUUUAGAGGAGGAUCUGAUGGAUAUGGCAGUGGACGUGGAUUUGGGGAUGGCUAUAAUGGGUAUGGAGGAGGACCUGGAGGUGGCAAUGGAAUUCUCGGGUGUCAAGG`, the log2 enrichment was 0.174.
The log2 enrichment of `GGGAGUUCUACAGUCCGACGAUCGCAGGAAGUAAAAACAAAUGGAAAUGAUUCGGAUAGUGGCAGGGGUGGGGGUUGCUAAGGAAAGGGUGGGAUGGGAGUGGGUAAAGAGUUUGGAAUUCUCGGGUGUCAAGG` is reported as -0.208.

Set 2 — technique: RNA Bind-n-Seq; molecule type: RNA; matrix: in vitro; tested at: 365 nM; baseline: no-protein control; direction: higher = stronger binding
Target: RNA binding protein fox-1 homolog 2, RRM domain, GST-SBP tag (RBFOX2, Homo sapiens, UniProt O43251-10, residues 100-194)
Setting: natural RNA segment, single round, ends assumed
Target sequence (chain): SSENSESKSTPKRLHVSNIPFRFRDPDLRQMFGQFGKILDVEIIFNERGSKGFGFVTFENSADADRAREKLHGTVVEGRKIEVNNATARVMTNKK
For `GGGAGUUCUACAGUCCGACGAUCACCAUCAAUAUGUAGACCGUCAUUGACCAAAACAUCCUGAUGUGUGCAUGACUGUACUUUUCAUUAAAUAACAGAUAAGGGGCUAUAGAAUUUGGGGCUCUGACUGAUCAUGGAAUUCUCGGGUGCCAA`, “RBNS enrichment (R)” read 1.91.
For `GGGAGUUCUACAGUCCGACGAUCAAGCAGGCAGGAAAGAAAAUGUCUCAUCCUUUCUUGAAAGCAUUUGCAGAAAAUAUAUCAUUUCAUUUUAUUCCCAUCUGUUUUCAAACUCGUGAUCUUAAAAGGCAUUCUGGAAUUCUCGGGUGCCAA`, “RBNS enrichment (R)” read 0.503.
For `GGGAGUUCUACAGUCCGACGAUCCCCAGCAUGUACUCACUGUGGGCAGAUGCACCAAUACAUGGUAAUCCUCUUACUCAUUUUAAGACGUAGGAAACUCAAUAUUCUUCUCUAACCAUAUACGAUAGGGCUCUUGGAAUUCUCGGGUGCCAA`, “RBNS enrichment (R)” read 8.33.
`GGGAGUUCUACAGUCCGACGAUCGUGUUUGUCACUUGUUGUGUGGUUUUAUGUUUCCCGCUGUGUGAGCAUAAACACUGUGCAGUUUUCCUGCUUGCCAGCCUGUGUGCCAUCUGUUCUCACAGCCUCUGAGAUGGAAUUCUCGGGUGCCAA`: “RBNS enrichment (R)” 0.368.
`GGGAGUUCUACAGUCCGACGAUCUUUACAGUGCCAGAUAUUUAUACAUCAUAAACUUAGGAAAUGCCUAAAAGAGCCUAAGCAGGAAAAAUCCUAGGGUGAGGCAAUGUUUGCAUGAUGAGAGAGGAAGGGUUUGGAAUUCUCGGGUGCCAA`: “RBNS enrichment (R)” 2.24.
`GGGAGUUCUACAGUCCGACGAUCGAGCUUCAGGCAGCAGUGUUUAUCUCUGGCCAGUUGUCUGGUUUCCAUGUAUUCUAGGCCAGGUAGGCAACACAGAGCCAAGGCGGGUGCUGGAAGCCAGACGGAACAGUUGGAAUUCUCGGGUGCCAA` — result for “RBNS enrichment (R)”: 0.34.
For `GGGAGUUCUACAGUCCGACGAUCUAGUGUCUCUGGCUAGGGCUUCACCUUUCGGUUUUUUGUUUUUUGUUUUUUCUGGUCCCUGAGUCUGGCAUUUCUGUCUGUGACUUAGCUAUGUUUCUGAUGCCAAUCACUGGAAUUCUCGGGUGCCAA`, “RBNS enrichment (R)” read 5.85.
`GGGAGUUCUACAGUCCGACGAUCUCAGACUCUCAGUCCUCAGAUGUGGAAAUAAAACAAAACACCUGUAUGGCUGCCAUUCUCUUCAGCCCUCGCUCUCCCCUUUCCACAGCCUCCACCCCUGACCCCCAUCCUGGAAUUCUCGGGUGCCAA`: “RBNS enrichment (R)” 0.526.
`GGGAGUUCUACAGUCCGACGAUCGAGAGAUGGCACACCAGAUGCUUUUGUGAGAAAGGGAUGGUGGAGUGAGAGCCUUUGCCUUUAGGGGUGUGUAUUCACAUAGUCCUCAGGGCUCAGUCUUUUGAGGUAAGUGGAAUUCUCGGGUGCCAA` — result for “RBNS enrichment (R)”: 0.246.
For `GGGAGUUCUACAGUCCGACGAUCUGUGUCCACAUCUAACAAAGUCAAGAUUCCCGGCUGGACUUUUGCAGCUUCCUUCCAAGUCUUCCUGACCACCUUGCACUAUUGGACUUUGGAAGGAGGUGCCUAUAGAAUGGAAUUCUCGGGUGCCAA`, “RBNS enrichment (R)” read 0.879.
`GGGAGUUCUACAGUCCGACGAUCCUGCAGCAGUUCCCUGUAUGGGUGGAUGUCCUCAGGGGCCAAGAAGAGAAGAAUGGGGACAACAGAAACCUGCUUUGUAGGGGAUUAUGUAGACUAAAAGCCUAGAAGUUUGGAAUUCUCGGGUGCCAA` — result for “RBNS enrichment (R)”: 0.731.
`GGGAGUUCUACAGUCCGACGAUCUCCUGAGCACCAAGACCUCUUCUGGUGGUGUGGAACCAGCCAAGAGAUUUCAAGGAAGAGUGAUUAUUUGAUGAAUGCUAUGGGAAUGGCCUCUUCUCUUGGAGUUCUGAUGGAAUUCUCGGGUGCCAA` — result for “RBNS enrichment (R)”: 3.16.

Set 3 — technique: protein-binding microarray; molecule type: double-stranded DNA, one strand shown; matrix: in vitro; tested at: 250 nM; setting: 60-bp whole probe; with: salmon DNA 0.4 mg/ml; baseline: random background probes; direction: higher = stronger binding; shared flanks, not repeated: GCCTAGCAC … GTCTTGATTCGCTTGACGCTGCTG
Target: Interferon regulatory factor 5, full length, phosphomimetic (IRF5, Homo sapiens, UniProt Q13568-2, residues 1-514, K96S/S451D/S453D/S456D/S462D)
`TTGGGTCTCCTACTGCTTTAGTGCTAG` has a log fluorescence of -0.493 z-score.
`TTAGGTATCGGTATCGGGTAGTGCTAG` has a log fluorescence of 8.18 z-score.
The log fluorescence of `GACGAATTACCTCTGGAGCAGTGCTAG` is reported as -0.183 z-score.
With `TTACGTATCGGACTGGGTTAGTGCTAG` the log fluorescence was 2.24 z-score.
With `CATCCGTTTCTTCTAGACTTGTGCTAG` the log fluorescence was 1.11 z-score.
The log fluorescence of `GACGGTTTCTTTCTCCTGACGTGCTAG` is reported as 2.09 z-score.
With `GACGAACTGAGTTTCGAGGCGTGCTAG` the log fluorescence was 3.64 z-score.
`TAAGGTATCGGACTGGGTTAGTGCTAG` has a log fluorescence of 0.697 z-score.
The log fluorescence of `TTAGATTTCGGGTTTCGATAAGTGCTA` is reported as 8.36 z-score.
The log fluorescence of `TTAGATATCGGGACTAGATTAGTGCTA` is reported as 1.28 z-score.
`GTCGGTTTCCTTTTCCTGACGTGCTAG` has a log fluorescence of 2.05 z-score.
With `GACGATTTCCGTCTCGAGACGTGCTAG` the log fluorescence was 0.682 z-score.
`GACGGACTGGACTACCGGGACGTGCTA` has a log fluorescence of -0.656 z-score.
`TTAGGTTTCGGTTCCGGCTAGTGCTAG` gave a log fluorescence of 9.92 z-score.
With `TTACGACTGGGTATCGGTTAGTGCTAG` the log fluorescence was 4.97 z-score.
`TCAACTCTTTATTTAAGACTGTGCTAG` has a log fluorescence of 0.375 z-score.
`GTCTGTTTCCTCTTTCTTTGGTGCTAG` gave a log fluorescence of 1.69 z-score.
The log fluorescence of `TTCTAAATATCTTTGTTGAAGTGCTAG` is reported as 0.632 z-score.
`GACGGACTGGAGACTGGGGACGTGCTA` gave a log fluorescence of -0.561 z-score.
`TTAGATAACGGGTATCGATTAGTGCTA` gave a log fluorescence of 4.05 z-score.
`TTAGGTCTCCTTATCTTTTAGTGCTAG` has a log fluorescence of 0.252 z-score.
The log fluorescence of `TCAGATATCGGGACTGGATTAGTGCTA` is reported as 0.925 z-score.

Set 4 — technique: protein binding microarray; molecule type: double-stranded DNA, one strand shown; matrix: in vitro; tested at: not given; baseline: not given; direction: higher = stronger binding
Target: Histone acetyltransferase KAT6A, both winged helices, GST fusion (KAT6A, Homo sapiens, UniProt Q92794, residues 1-181)
Setting: 8-mer, flanks averaged, mean of 2 arrays, mostly near background
Target sequence (chain): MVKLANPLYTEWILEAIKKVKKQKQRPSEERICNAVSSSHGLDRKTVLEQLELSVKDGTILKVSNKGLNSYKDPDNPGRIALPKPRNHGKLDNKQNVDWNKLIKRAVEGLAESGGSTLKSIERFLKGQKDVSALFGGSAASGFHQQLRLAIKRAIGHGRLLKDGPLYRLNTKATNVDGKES
The E-score of `GATATCGC` is reported as 0.176.
For `AGTTTCAT`, the E-score was -0.126.
`AAAAATCA` gave an E-score of -0.0501.
`AAGTTGAC` gave an E-score of -0.0489.
`AAATTCAA` has an E-score of -0.0939.
The E-score of `GCCACAGA` is reported as -0.0836.
`ACTCTCGC` has an E-score of -0.0172.
`GCGAAACC` has an E-score of 0.129.
The E-score of `CATCGGAC` is reported as 0.0486.
`TAGTGTCA` has an E-score of 0.0436.
The E-score of `CATTATCG` is reported as 0.0163.
With `CGAGGGTA` the E-score was -0.0773.
`AATGAGGT` has an E-score of -0.111.
With `TGCAGAAA` the E-score was 0.0295.
For `CGAGAACG`, the E-score was 0.169.
With `AGGCCCTC` the E-score was -0.117.
The E-score of `CCTCGGTA` is reported as 0.00578.
